{"data": "Results from different studies", "CNR1": "Cannabinoid receptor 1 (CNR1, Homo sapiens, UniProt P21554)", "HTR2A": "5-hydroxytryptamine receptor 2A (HTR2A, Homo sapiens, UniProt P28223)", "note": "Compare with care: the assays were run in different laboratories. Numbers after ± are the reported error.", "sequence of UniProt P28223 (whole entry, looked up)": "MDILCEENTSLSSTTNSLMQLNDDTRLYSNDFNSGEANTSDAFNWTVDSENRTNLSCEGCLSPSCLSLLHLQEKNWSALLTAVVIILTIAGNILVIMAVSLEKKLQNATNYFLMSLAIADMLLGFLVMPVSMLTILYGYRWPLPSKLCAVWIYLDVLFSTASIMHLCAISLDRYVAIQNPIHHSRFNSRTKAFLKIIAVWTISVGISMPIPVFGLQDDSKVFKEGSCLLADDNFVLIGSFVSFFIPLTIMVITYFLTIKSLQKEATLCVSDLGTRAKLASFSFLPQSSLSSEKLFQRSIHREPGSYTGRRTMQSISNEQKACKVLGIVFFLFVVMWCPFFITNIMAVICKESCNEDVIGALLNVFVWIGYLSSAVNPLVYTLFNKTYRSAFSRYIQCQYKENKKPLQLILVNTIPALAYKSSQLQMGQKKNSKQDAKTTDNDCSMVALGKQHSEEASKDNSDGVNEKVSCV", "sequence of UniProt P21554 (whole entry, looked up)": "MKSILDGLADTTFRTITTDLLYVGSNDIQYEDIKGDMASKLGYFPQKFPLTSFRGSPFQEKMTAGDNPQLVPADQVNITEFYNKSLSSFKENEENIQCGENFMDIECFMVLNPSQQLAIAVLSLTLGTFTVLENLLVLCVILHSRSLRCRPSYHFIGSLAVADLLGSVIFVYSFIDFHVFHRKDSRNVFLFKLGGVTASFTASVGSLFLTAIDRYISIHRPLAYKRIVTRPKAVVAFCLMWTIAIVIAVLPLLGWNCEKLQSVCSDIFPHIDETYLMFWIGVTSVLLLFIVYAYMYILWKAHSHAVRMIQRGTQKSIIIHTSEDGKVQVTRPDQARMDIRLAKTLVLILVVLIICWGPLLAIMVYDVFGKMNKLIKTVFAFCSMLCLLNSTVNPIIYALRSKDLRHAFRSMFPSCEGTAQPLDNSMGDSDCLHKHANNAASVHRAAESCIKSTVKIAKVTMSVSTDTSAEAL", "sequence of UniProt P41143 (whole entry, looked up)": "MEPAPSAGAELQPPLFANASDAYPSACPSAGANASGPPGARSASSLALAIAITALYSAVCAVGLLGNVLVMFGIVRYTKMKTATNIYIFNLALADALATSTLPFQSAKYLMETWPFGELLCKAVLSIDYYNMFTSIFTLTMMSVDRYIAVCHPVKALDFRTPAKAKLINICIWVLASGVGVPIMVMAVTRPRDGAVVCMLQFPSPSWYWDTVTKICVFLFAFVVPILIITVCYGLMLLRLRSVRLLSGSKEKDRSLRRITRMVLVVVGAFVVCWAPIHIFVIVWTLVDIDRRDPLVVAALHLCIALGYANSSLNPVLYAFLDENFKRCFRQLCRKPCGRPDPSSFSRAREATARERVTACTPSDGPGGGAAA", "sequence of UniProt P43681 (whole entry, looked up)": "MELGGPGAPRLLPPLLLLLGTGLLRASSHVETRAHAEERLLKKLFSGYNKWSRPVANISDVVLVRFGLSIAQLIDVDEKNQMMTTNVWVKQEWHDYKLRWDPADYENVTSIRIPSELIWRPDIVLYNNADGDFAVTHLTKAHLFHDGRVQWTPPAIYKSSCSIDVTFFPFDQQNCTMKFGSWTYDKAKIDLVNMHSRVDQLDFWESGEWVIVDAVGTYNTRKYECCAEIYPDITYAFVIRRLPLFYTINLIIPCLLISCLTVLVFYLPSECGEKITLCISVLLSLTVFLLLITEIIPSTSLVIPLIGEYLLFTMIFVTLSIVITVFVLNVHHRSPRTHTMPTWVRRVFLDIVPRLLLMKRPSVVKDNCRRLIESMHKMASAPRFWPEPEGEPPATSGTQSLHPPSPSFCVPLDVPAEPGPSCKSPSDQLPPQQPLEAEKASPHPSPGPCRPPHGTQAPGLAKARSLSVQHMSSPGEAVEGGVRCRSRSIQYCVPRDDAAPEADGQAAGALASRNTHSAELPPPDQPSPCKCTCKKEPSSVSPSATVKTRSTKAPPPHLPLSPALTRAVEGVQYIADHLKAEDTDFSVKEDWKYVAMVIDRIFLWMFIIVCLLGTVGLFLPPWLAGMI", "sequence of UniProt P08908 (whole entry, looked up)": "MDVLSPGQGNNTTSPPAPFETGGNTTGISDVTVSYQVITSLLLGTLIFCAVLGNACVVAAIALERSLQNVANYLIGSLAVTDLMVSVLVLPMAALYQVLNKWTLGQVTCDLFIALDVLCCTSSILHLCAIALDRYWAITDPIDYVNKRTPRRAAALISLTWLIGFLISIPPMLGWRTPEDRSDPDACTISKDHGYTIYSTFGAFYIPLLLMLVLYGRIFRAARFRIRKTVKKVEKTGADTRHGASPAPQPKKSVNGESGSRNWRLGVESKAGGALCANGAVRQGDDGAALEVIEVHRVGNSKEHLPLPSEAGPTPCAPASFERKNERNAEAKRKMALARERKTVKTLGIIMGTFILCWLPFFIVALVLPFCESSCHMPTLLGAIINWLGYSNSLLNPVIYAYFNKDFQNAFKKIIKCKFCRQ", "sequence of UniProt P28335 (whole entry, looked up)": "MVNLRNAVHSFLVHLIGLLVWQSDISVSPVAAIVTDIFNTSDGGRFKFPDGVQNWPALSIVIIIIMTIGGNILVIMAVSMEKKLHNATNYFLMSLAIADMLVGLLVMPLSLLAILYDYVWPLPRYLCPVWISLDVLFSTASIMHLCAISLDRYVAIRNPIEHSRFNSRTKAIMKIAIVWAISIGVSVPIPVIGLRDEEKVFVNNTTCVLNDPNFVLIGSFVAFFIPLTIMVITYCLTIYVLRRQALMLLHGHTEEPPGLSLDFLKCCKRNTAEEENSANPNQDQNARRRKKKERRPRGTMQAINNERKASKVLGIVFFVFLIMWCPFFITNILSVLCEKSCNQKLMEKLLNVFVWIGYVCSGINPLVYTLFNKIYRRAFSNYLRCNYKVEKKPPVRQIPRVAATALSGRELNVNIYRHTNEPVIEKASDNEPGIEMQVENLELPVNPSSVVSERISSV", "sequence of UniProt P10275 (whole entry, looked up)": "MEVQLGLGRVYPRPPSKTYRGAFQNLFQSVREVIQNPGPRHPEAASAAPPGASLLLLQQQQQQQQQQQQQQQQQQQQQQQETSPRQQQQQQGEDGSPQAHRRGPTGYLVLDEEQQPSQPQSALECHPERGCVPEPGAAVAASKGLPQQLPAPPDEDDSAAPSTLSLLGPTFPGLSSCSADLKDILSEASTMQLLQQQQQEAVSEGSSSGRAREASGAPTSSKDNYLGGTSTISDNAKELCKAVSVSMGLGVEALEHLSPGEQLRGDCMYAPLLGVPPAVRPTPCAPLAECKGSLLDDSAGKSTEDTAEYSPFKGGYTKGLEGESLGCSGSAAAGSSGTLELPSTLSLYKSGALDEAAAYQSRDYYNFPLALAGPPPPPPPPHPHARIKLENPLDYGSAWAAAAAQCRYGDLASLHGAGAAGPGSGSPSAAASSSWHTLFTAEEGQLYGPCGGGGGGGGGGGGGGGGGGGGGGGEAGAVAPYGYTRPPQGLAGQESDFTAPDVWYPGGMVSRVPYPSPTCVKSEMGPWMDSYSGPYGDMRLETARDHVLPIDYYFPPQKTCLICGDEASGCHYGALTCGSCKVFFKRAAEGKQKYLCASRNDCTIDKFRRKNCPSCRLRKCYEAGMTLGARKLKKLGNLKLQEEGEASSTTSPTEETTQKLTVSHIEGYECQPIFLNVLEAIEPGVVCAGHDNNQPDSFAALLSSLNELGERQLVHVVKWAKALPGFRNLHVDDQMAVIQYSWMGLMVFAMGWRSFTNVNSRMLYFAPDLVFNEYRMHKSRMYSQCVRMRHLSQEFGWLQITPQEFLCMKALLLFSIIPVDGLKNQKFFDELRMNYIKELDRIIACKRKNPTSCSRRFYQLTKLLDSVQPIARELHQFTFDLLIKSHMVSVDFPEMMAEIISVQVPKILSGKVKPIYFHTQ", "sequence of UniProt P18825 (whole entry, looked up)": "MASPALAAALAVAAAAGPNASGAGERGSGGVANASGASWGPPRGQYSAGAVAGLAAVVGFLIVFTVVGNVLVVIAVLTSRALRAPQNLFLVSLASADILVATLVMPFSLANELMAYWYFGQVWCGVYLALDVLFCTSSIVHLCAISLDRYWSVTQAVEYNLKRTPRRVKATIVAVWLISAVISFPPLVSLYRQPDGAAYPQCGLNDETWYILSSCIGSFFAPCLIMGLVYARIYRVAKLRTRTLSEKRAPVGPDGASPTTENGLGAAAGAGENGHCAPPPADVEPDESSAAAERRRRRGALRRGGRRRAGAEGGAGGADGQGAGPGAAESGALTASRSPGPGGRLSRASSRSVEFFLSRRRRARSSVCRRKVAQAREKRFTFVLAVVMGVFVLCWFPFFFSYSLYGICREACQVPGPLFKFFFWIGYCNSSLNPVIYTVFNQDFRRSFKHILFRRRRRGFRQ", "sequence of UniProt P30872 (whole entry, looked up)": "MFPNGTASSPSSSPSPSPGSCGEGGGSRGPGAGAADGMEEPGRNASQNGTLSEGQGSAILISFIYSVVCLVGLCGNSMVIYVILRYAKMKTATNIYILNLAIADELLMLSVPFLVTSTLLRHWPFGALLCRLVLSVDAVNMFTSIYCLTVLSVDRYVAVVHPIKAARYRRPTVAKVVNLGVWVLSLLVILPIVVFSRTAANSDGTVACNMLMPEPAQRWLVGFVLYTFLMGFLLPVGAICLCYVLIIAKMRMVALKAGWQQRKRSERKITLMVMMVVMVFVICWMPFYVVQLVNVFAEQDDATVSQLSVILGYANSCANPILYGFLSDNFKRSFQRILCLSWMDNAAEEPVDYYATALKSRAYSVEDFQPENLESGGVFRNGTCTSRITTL", "sequence of UniProt Q9Y5Z9 (whole entry, unmodified, looked up)": "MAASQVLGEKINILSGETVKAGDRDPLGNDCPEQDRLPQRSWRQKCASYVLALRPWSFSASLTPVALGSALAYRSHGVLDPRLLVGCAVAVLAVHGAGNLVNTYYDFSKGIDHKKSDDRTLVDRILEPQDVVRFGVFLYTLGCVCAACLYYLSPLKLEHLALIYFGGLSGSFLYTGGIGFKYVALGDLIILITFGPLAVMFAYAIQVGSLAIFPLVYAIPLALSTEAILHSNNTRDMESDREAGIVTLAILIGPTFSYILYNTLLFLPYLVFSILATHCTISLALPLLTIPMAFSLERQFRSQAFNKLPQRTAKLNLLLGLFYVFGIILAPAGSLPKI"}
{"Compound": "CCCCC/C=C\\C/C=C\\C/C=C\\C/C=C\\CCCC(=O)NCCc1c[nH]c2ccc(O)cc12", "target": "Sterol carrier protein 2 (Homo sapiens, UniProt P22307)", "test": "NBDS displacement, fluorescent probe displacement", "setting": "50% of maximum displacement, with: NBDS 500 nM", "EC50": "3330 ± 50 nM"}
{"Compound": "CC1(Cc2ccccc2)COc2cc(C(=O)N3CCCCC3)ccc21 (stereo not shown)", "target": "CNR1", "test": "GTPγS binding, agonist", "setting": "cell membranes", "EC50": "> 10000 nM"}
{"Compound": "CNCCc1c[nH]c2ccc(OC)cc12", "target": "HTR2A", "test": "β-arrestin recruitment, agonist", "EC50": "611 nM"}
{"Compound": "Nc1ncnc2c1ncn2[C@@H]1O[C@H](COP(=O)(O)OP(=O)(O)OP(=O)(O)O)[C@@H](O)[C@H]1O", "target": "cAMP-dependent protein kinase catalytic subunit alpha (Prkaca, Mus musculus, UniProt P05132)", "test": "binding of FAM-SMO peptide, activator, fluorescence polarization", "setting": "pH 7", "EC50": "590 nM"}
{"Compound": "C=CC=O", "target": "Transient receptor potential cation channel subfamily A member 1 (TRPA1, Homo sapiens, UniProt O75762)", "test": "calcium signal, agonist, fluorescence", "EC50": "85000 nM"}
{"Compound": "CCN(CC)CCc1c[nH]c2ccccc12", "target": "HTR2A", "test": "calcium signal, agonist", "EC50": "67.8 nM"}
{"Compound": "CC[C@H](C)[C@H](NC(=O)[C@H](Cc1c[nH]cn1)NC(=O)[C@@H](NC(=O)[C@H](CCC(N)=O)NC(=O)[C@H](CCCNC(=N)N)NC(=O)[C@H](CCSC)NC(=O)[C@@H](N)CCC(=O)O)[C@@H](C)O)C(=O)N[C@H](C(=O)N[C@@H](Cc1ccccc1)C(=O)N[C@@H](Cc1ccccc1)C(=O)N[C@@H](Cc1ccccc1)C(=O)N[C@@H](Cc1ccccc1)C(=O)N[C@@H](Cc1ccccc1)C(=O)N[C@@H](CCCCN)C(=O)N[C@@H](CCCNC(=N)N)C(=O)N[C@@H](CCCNC(=N)N)C(=O)O)[C@@H](C)CC", "target": "histidine kinase ComD (Streptococcus pneumoniae serotype 4, UniProt A0A0H2US84)", "test": "reporter gene, agonist", "system": "Streptococcus pneumoniae, TIGR4 comX::lacZ", "setting": "30 min, pH 7.3, 37 °C", "EC50": "> 10000 nM"}
{"Compound": "CCCC(=O)N[C@H]1CCOC1=O", "target": "HTH-type quorum-sensing regulator RhlR (rhlR, Pseudomonas aeruginosa, UniProt P54292)", "test": "reporter gene, agonist", "system": "PAO-JP2 prhlI-LVAgfp", "setting": "with: OdDHL 100 nM", "EC50": "30600 nM"}
{"Compound": "CC[C@H](C)[C@H](NC(=O)[C@H](CCCNC(=N)N)NC(=O)[C@H](CO)NC(=O)[C@H](CC(C)C)NC(=O)[C@H](CCCNC(=N)N)NC(=O)[C@H](CCSC)NC(=O)[C@@H](N)CCC(=O)O)C(=O)N[C@H](C(=O)N[C@@H](CC(C)C)C(=O)N[C@@H](CC(=O)O)C(=O)N[C@@H](Cc1ccccc1)C(=O)N[C@@H](CC(C)C)C(=O)N[C@@H](Cc1ccccc1)C(=O)N[C@@H](CCC(N)=O)C(=O)N[C@@H](CCCNC(=N)N)C(=O)O)[C@@H](C)CC", "target": "histidine kinase ComD (Streptococcus pneumoniae serotype 2, UniProt A0A0H2ZM50)", "system": "Streptococcus pneumoniae", "EC50": "> 1000 nM"}
{"Compound": "CCCN(CCC)CCc1c[nH]c2ccc(OC)cc12", "target": "5-hydroxytryptamine receptor 1A (HTR1A, Homo sapiens, UniProt P08908)", "test": "calcium signal, agonist", "EC50": "476 nM"}
{"Compound": "COC1=Cc2ccnc3ccnc(c23)C1=O", "target": "Delta-type opioid receptor (OPRD1, Homo sapiens, UniProt P41143)", "test": "calcium signal, agonist", "EC50": "2300 nM"}
{"Compound": "CC1=CC(=O)c2ccccc2C1=O", "target": "UbiA prenyltransferase domain-containing protein 1, C147S (UBIAD1, Homo sapiens, UniProt Q9Y5Z9)", "test": "vitamin K-dependent carboxylation, refers to: FIXgla-PC", "system": "FIXgla-PC reporter cells", "EC50": "3.7 ± 0.6 nM"}
{"Compound": "c1cc2c3c(c1)c1c(n3CCNC2)CCCC1", "target": "5-hydroxytryptamine receptor 2C (HTR2C, Homo sapiens, UniProt P28335)", "test": "calcium signal, agonist", "EC50": "451 nM"}
{"Compound": "CCCN(CCC)CCc1c[nH]c2ccccc12", "target": "HTR2A", "test": "calcium signal, agonist", "EC50": "26.1 nM"}
{"Compound": "CC(C)[C@H](NC(=O)[C@@H]1CSSC[C@H](NC(=O)[C@H](CC(N)=O)NC(=O)[C@@H](N)CCCCN)C(=O)N[C@@H](Cc2ccccc2)C(=O)N[C@H](Cc2c[nH]c3ccccc23)C(=O)N[C@@H](CCCCN)C(=O)N[C@@H]([C@@H](C)O)C(=O)N1)C(=O)O", "target": "Somatostatin receptor type 1 (SSTR1, Homo sapiens, UniProt P30872)", "EC50": "130 nM"}
{"Compound": "O=C(c1ccc(F)cc1)N1CCc2nc(COc3ccccc3)oc2C1", "target": "Metabotropic glutamate receptor 5 (Grm5, Rattus norvegicus, UniProt P31424)", "test": "calcium signal, positive allosteric modulator", "EC50": "235 nM"}
{"Compound": "CCCN(C/C=C/I)C1CCc2ccc(O)cc2C1 (stereo not shown)", "target": "Alpha-2C adrenergic receptor (ADRA2C, Homo sapiens, UniProt P18825)", "test": "G protein activation, agonist, BRET, refers to: Gαi2", "system": "HEK293T, transfected", "setting": "Emax below 50%", "EC50": "10 ± 2 nM"}
{"Compound": "CNc1nc2cc(OCCCCN3CCN(c4cccc(Cl)c4Cl)CC3)ccc2s1", "target": "D(2) dopamine receptor (DRD2, Homo sapiens, UniProt P14416)", "test": "cAMP, agonist, luciferase", "EC50": "24 nM"}
{"Compound": "CC[C@H](C)[C@H](NC(=O)[C@H](Cc1ccccc1)NC(=O)[C@H](CCCNC(=N)N)NC(=O)[C@H](CO)NC(=O)[C@@H](NC(=O)[C@H](CCCNC(=N)N)NC(=O)[C@H](CCSC)NC(=O)[C@@H](N)CCC(=O)O)[C@@H](C)CC)C(=O)N[C@@H](CC(C)C)C(=O)N[C@@H](CC(=O)O)C(=O)N[C@@H](Cc1ccccc1)C(=O)N[C@@H](CC(C)C)C(=O)N[C@@H](Cc1ccccc1)C(=O)N[C@@H](CCC(N)=O)C(=O)N[C@@H](CCCNC(=N)N)C(=O)O", "target": "histidine kinase ComD (Streptococcus pneumoniae serotype 2, UniProt A0A0H2ZM50)", "system": "Streptococcus pneumoniae", "EC50": "> 1000 nM"}
{"Compound": "COC(=O)c1ccc2c(C(CC(F)(F)F)c3cccs3)c(-c3ccccc3)[nH]c2c1 (single isomer, unassigned; (+))", "target": "CNR1", "test": "positive allosteric modulator", "setting": "with: EC20 CP 55940", "EC50": "160 ± 147 nM"}
{"Compound": "CC[C@H](C)[C@H](NC(=O)[C@H](Cc1ccccc1)NC(=O)[C@H](CC(=O)O)NC(=O)[C@H](CC(C)C)NC(=O)[C@@H](NC(=O)[C@@H](NC(=O)[C@H](CCCNC(=N)N)NC(=O)[C@H](CO)NC(=O)[C@H](CC(C)C)NC(=O)[C@H](CCCNC(=N)N)NC(=O)[C@H](CCSC)NC(=O)[C@@H](N)CCC(=O)O)[C@@H](C)CC)[C@@H](C)CC)C(=O)N[C@@H](Cc1ccccc1)C(=O)N[C@@H](CC(C)C)C(=O)N[C@@H](CCCNC(=N)N)C(=O)O", "target": "histidine kinase ComD (Streptococcus pneumoniae serotype 2, UniProt A0A0H2ZM50)", "system": "Streptococcus pneumoniae", "EC50": "> 1000 nM"}
{"Compound": "C[C@@H]1CN(c2c(F)c(F)c3c(=O)c(C(=O)O)cn(C4CC4)c3c2F)C[C@H](C)N1", "target": "Androgen receptor (AR, Homo sapiens, UniProt P10275)", "system": "human cells", "setting": "concentration not given", "EC50": "26000 nM"}
{"Compound": "CC(C)N(C)CCc1c[nH]c2ccccc12", "target": "HTR2A", "test": "calcium signal, agonist", "EC50": "44.9 nM"}
{"Compound": "CC[C@H](C)[C@H](NC(=O)[C@@H](N)CCC(=O)O)C(=O)N[C@@H](CCCNC(=N)N)C(=O)N[C@@H](CCC(N)=O)C(=O)N[C@H](C(=O)N[C@@H](Cc1c[nH]cn1)C(=O)N[C@@H](Cc1ccccc1)C(=O)N[C@@H](Cc1ccccc1)C(=O)N[C@@H](Cc1ccccc1)C(=O)N[C@@H](Cc1ccccc1)C(=O)N[C@@H](CC(N)=O)C(=O)N[C@@H](Cc1ccccc1)C(=O)N[C@@H](Cc1ccccc1)C(=O)N[C@@H](CCCCN)C(=O)N[C@@H](CCCNC(=N)N)C(=O)N[C@@H](CCCNC(=N)N)C(=O)O)[C@@H](C)O", "target": "histidine kinase ComD (Streptococcus pneumoniae serotype 2, UniProt A0A0H2ZM50)", "test": "reporter gene, agonist", "system": "Streptococcus pneumoniae, D39 comX::lacZ", "setting": "30 min, pH 7.3, 37 °C", "EC50": "> 10000 nM"}
{"Compound": "C=CC(C)(C)c1[nH]c2cc(Br)ccc2c1CCNC", "target": "Neuronal acetylcholine receptor; alpha4/beta2, (α4)3(β2)2 stoichiometry (Homo sapiens, UniProt P17787+P43681)", "test": "ion current, potentiator, two-electrode voltage clamp", "system": "Xenopus oocytes", "setting": "low-sensitivity α4β2 stoichiometry, with: 100 µM acetylcholine (EC75)", "EC50": "630 ± 40.6 nM"}
{"note": "For quick reference, copied from above:"}
{"Compound": "CCCN(CCC)CCc1c[nH]c2ccccc12", "target": "HTR2A", "test": "calcium signal, agonist", "EC50": "26.1 nM"}
